Results of several laboratories.
Numbered parts are unrelated; each lists some results of a single study. Positions count from the first letter of the parent shown.

Series 1 — target: CCNE1, cyclin fold, Cln2 fusion (human); method: yeast growth competition, sequencing; medium: yeast; setting: weak parent motif; baseline: not given; direction: higher = stronger binding; endpoint: normalised enrichment score
Starting sequence: FOXM1 docking peptide (human); PHLARPIKVESPP
P12A: -0.564
H2A: -0.213
L3A: -0.0795
S11A: 0.0307
I7A: -0.327
E10A: -0.105

Series 2 — method: RNA Bind-n-Seq; form: RNA; medium: in vitro; tested at: 365 nM; baseline: no-protein control; direction: higher = stronger binding; endpoint: RBNS enrichment (R)
Target: RNA binding protein fox-1 homolog 2, RRM domain, GST-SBP tag (RBFOX2, Homo sapiens, UniProt O43251-10, residues 100-194)
Setting: natural RNA segment, single round, ends assumed
Constant ends, left off below: GGGAGUUCUACAGUCCGACGAUC … UGGAAUUCUCGGGUGCCAA
Target sequence (chain): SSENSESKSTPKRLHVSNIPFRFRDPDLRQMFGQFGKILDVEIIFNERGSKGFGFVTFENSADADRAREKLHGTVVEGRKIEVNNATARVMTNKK
UUGGCAUUCUUAUGUUUGGGUUUAAUAAGAUUAAGAAAAUGAUACUGGGAAUUUUCUUUUUCCUGAAACUUUGAAUCACCCUAGUAAGUCAAAGUACUAAAAAAUGUACU: 0.868
AAGCAGUCCUGGAGAUCCCAUUAUUAAUAAAACAAAAAGGCCUGCAGAGAUUCCUGACCACUGAUCAUGCGGCCAGGAAGGGGGACCAAGAGUAAACCCCAUCUUAAUUA: 0.579
ACCAGUGAUGGAGAGCCCACCCAAGUCCGACGUCCUGAGACAAUGUCAAACCAUGAUGUUGUCAUUGAGCAGUAGCUCAUGAGCAAUGGCAUGUCUUUCUCCCCUGACCC: 0.209
GAUAACAAGUGGGAAUUUACUCACUGACUUCUCAUUUAUCAUAAAAGCUGCAGCACCUUUAUGUACAGAACAAUGUCACAGUGUGUGUGUGUGUGUGUGUGUGAGCGAGC: 0.42
AUCAGUGAGUCUUACAGAAAGAUAUGCUUCCAUAAUAUGAAAUAGAUUAUUCAAUAAUUGAGAAACUUUAUGUGUAAUCAUGAGAGUAUAAGAAUCUGGAUUAUCUAACA: 0.409
UUGUGUUAAAUAGUACUAGCUAGAAAUACAAAUUUCUGGUUAUCAUUUCUCUUCCCUGUGGCACUUGACAUUUUAAUUGUCUUAAAGUUUUUGAAGUACAUCUUCUGGCC: 0.364
UGCGGCUUAUACAGUACCCUAACCUGCUACUAAUCACAGAGAAAAAUGUGAAGAAGGAGGAGAAGAGGAAGGCUAGAAGCCUGAGCAAGUGAGGGUAGAACCUUUUGGGA: 0.575
UUACUUCCCAGACCAGGUGUCCGGCUGGGAACAAACCACUAAUUUGUCACUGGACUGUCUCUGGGCCUGCUUAGACGGGGAUUGACACACAGAAUGGAACUGUGAGUGGA: 1.3
GACAGUGACACAUGUAACUUAGCAUAGGCAAAGGGUUCUACAACCAAAGAAGCCACUGUUUGGGGAUGGCGCCCUGGAAAACAGCCUCCCACCUGGGAUAGCUAGAGCAU: 1.65
GUCUCUCUUGGGGUAAACUUGCUACCCCUGUGGUUGGGUCUAUGGUGGGAAAUGAAACAGUGUUCUGAUCCAUUGCCAAAGGAUGUAGGAAAACAGUUGGGUUUUGUUCA: 0.958
CUUUUUGUAUAGAAAGCACUACCCUAAGCCAUGAAGAACUCCAUGCUUUGCUAACCAAGAUAACUGUUUUCUCUUUGUAGAAGUUUUGUUUUUGAAAUGUGUAUUUCUAA: 0.575
UCUUAGUGAAGUCCUUUGUUGGGCUAUGGGCUAGCAUGUGGCUCACUGCUGUAAUGCUAGUAUUUCAAAGUCUGAAGCAGGAGGACUCCCAUGAGGUUGAGGUUACCCUG: 0.454

Series 3 — method: protein-binding microarray; form: double-stranded DNA, one strand shown; medium: in vitro; tested at: not given; direction: higher = stronger binding; endpoint: E-score
Target: Protein max, full length (MAX, Homo sapiens, UniProt P61244-2, residues 1-151)
Setting: k-mer, scored over probes, only values ≥0.25
ACCCACGA: 0.353
ATGCTACC: 0.254
AGGCGTGG: 0.373
TGCGTACA: 0.288
CTTCACGC: 0.29
ACCACGCG: 0.471
ATTCCACG: 0.332
AACACGCT: 0.413
ACGCCACC: 0.272
CACGCTCG: 0.401
AGAGCACG: 0.383
CGTGGTTA: 0.333
ACACGCAA: 0.262
CCACGCCG: 0.396
TAACACGA: 0.29
ACATGCTA: 0.387
CACGCCGG: 0.358
GCATGCGC: 0.42
AATAGCAT: 0.271
ACATCACG: 0.271
TCGTGTCA: 0.309

Series 4 — method: RNA Bind-n-Seq; form: RNA; medium: in vitro; tested at: 200 nM; setting: whole 134-nt RNA, ends assumed; added: 150 mM LiCl; baseline: input library; direction: higher = stronger binding; endpoint: log2 enrichment; each molecule: 7-deaza-guanosine replaces G
Target: Ras GTPase-activating protein-binding protein 1, full length (G3BP1, Homo sapiens, UniProt Q13283)
Sequence of UniProt Q13283 (whole entry, looked up): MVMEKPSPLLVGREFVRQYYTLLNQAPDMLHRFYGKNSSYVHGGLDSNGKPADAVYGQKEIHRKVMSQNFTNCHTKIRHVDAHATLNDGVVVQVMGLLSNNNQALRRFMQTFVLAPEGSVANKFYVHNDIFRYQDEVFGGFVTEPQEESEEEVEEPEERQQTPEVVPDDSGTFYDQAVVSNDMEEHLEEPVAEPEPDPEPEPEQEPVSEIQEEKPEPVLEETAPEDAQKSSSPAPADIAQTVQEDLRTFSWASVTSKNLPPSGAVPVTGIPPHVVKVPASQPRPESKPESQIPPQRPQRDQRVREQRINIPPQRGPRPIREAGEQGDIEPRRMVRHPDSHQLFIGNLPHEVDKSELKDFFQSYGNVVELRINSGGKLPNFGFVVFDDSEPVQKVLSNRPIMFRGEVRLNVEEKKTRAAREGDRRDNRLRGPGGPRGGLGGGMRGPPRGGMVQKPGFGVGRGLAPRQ
Constant ends, left off below: GGGAGUUCUACAGUCCGACGAUC … UGGAAUUCUCGGGUGUCAAGG
UAACUUUAGAGGAGGAUCUGAUGGAUAUGUCAGUGGACGUGGAUUUGGGGAUGGCUAUAAUGGGUAUGGAGGAGGACCUGGAGGUGGCAA: 0.105
CUCAAGUCCUGUGCUACACAUCGUAUGUACCGAAUCGGUUGGUUGGGGUUGGGAAAGUAUUAUGUUACGCCGUUCGGAUCUGCACUUCCA: 0.452
ACCAUGCAGGUGGGCAUCUUUAGGAAGUGGGGCAAGGGGGGGAUAGGGAGGGGGGUAACACUUUGGGAACAGGUGGUCCCAGGUCGUUUC: 0.304
UGGAAGGUGGAUUUUGUUUAUUUUUUUAGCUCAUUUCCAGGGGUGGGAAUUUUUUUUUAAUAUGUGUCAUGAAUAAAGUUGUUUUUGAAA: -0.407
AAGUCCUGUGCUACACAUCGUAUGUACCGAAUCGGGAAAGGGUUUUUGGGUUUGGGAAAGUAUUAUGUUACGCCGUUCGGAUCUGCACUU: -1.82
CCUGUGCUACACAUCGUAUGUACCGAAUCGGGGAAAAAAAGGGGAAAGGGGAAAAAGGGGAAAGUAUUAUGUUACGCCGUUCGGAUCUGC: 0.835
CAAGUCCUGUGCUACACAUCGUAUGUACCGAAUCGGGUUUGGGUUUGGUUUGGGGAAAGUAUUAUGUUACGCCGUUCGGAUCUGCACUUC: -0.427
GCAGGAAGUAAAAACAAAUGGAAAUGCUUCGGAUAGUGGCAGGGGUGGGGAUUGCUAAGGAAAGGGUGGGAUGGGAGUGGGUAAAGAGUU: 0.255
AGUCCUGUGCUACACAUCGUAUGUACCGAAUCGGGGCCCCCGGGCCCCCGGCCCCCGGAAAGUAUUAUGUUACGCCGUUCGGAUCUGCAC: -1.76
CACAGACAACACGCACCCACACAGACACAGAGGGAAGGGGUUGGGAUGGGGACAGCGUGCACAGCAGGGCGGGGUAGGACCCCAGCCCCU: -0.737
AGUCCUGUGCUACACAUCGUAUGUACCGAAUCGGGUUUUUGGGAAAAAGGGUUUGGGAAAGUAUUAUGUUACGCCGUUCGGAUCUGCACU: -2.57

Series 5 — method: protein binding microarray; form: double-stranded DNA, one strand shown; medium: in vitro; tested at: not given; baseline: not given; direction: higher = stronger binding; endpoint: E-score
Target: Histone acetyltransferase KAT6A, winged helix 1, GST fusion (KAT6A, Homo sapiens, UniProt Q92794, residues 1-85)
Setting: 8-mer, flanks averaged, mean of 2 arrays, mostly near background
Residues (chain): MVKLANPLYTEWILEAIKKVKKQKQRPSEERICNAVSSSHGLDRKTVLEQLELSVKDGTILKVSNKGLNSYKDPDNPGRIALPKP
GAAACTAC: -0.0424
CGAGGAGA: -0.137
ATCCACTC: -0.284
CCATGTTA: -0.145
CCGTAAAA: 0.219
CCAGCGAA: -0.125
AAACTCAT: -0.203
ATTGCCGC: 0.327
CTACTTGC: -0.0179
ACCTACGC: 0.169
ACGTTGAA: -0.0582
ATCCGAAG: -0.151
ATCGGGTA: 0.116
CGAGGCCA: -0.166
CGTTTCGC: 0.152
ACCGATCA: 0.0925
CCAAATAC: -0.282
ATCATCGG: 0.0851
GAGCTGCC: 0.116
AAGTAAGT: -0.151
CGCGTCCG: 0.318
ATTAGTTC: -0.129
AAGACTAG: -0.0881
CTATCACC: 0.00766
CGGAGGCA: 0.0485

Series 6 — method: protein-binding microarray; form: double-stranded DNA, one strand shown; medium: in vitro; tested at: 2540 nM top; setting: 60-bp whole probe; added: salmon DNA 0.4 mg/ml; baseline: random background probes; direction: higher = stronger binding; endpoint: fitted relative affinity; constant ends, left off below: GCCTAGCAC … GTCTTGATTCGCTTGACGCTGCTG
Target: Interferon regulatory factor 3, full length, phosphomimetic (IRF3, Homo sapiens, UniProt Q14653, residues 1-427, S386D/S396D/S398D/S402D/T404D/S405D)
Residues (chain): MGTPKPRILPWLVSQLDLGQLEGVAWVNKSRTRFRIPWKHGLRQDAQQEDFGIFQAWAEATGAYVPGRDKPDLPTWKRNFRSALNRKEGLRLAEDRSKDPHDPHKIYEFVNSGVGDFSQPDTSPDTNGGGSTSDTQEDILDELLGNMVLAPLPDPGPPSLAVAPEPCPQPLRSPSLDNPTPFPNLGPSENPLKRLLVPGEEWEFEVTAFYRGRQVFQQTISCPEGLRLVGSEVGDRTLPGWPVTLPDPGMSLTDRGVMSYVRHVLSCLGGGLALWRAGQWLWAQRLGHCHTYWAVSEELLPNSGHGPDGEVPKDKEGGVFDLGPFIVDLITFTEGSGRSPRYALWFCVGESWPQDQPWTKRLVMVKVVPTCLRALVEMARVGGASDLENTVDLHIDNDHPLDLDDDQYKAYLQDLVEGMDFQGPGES
GACGGTTTCGACTCTCGGGACGTGCTA: 4.39 z-score
CTCTGTCTGGGATGTAATTCCGTGCTA: -0.304 z-score
TTCGGTTTCGGGTATCGGTTAGTGCTA: 5.38 z-score
TCATCCTCCTCTCTCTTACTGTGCTAG: 1.05 z-score
TATAAATTATCTTTAATCCTGTGCTAG: 0.132 z-score
AACGGTTCCGGTTTCGGGACGTGCTAG: 6.37 z-score
TTAGATATCGGGTTTCGATCAGTGCTA: 1.36 z-score
CTAGGTATCGACACTGGGTTAGTGCTA: 0.261 z-score
TATCAGGGCATCCCCTTGAAGTGCTAG: -0.222 z-score
GACGGTCTCCATTTCCTGACGTGCTAG: 3.13 z-score
TTAGATACCAGACTGGATTAGTGCTAG: 0.927 z-score
TTAGAGATCAGACTGGATTAGTGCTAG: -0.344 z-score
TTAGGTATCGGTACCGGTTAGTGCTAG: 3.35 z-score
TTAGAACTGGCGTTTCGATTAGTGCTA: 1.04 z-score
GACGAACTGTGGTATCGAGACGTGCTA: -0.0947 z-score
TTATGTTTCGGTATCGGTTAGTGCTAG: 7.44 z-score

A few entries again (series 6):
CTAGGTATCGACACTGGGTTAGTGCTA: 0.261 z-score
AACGGTTCCGGTTTCGGGACGTGCTAG: 6.37 z-score
TTAGATACCAGACTGGATTAGTGCTAG: 0.927 z-score
GACGGTCTCCATTTCCTGACGTGCTAG: 3.13 z-score
TTAGAACTGGCGTTTCGATTAGTGCTA: 1.04 z-score
TATCAGGGCATCCCCTTGAAGTGCTAG: -0.222 z-score
TCATCCTCCTCTCTCTTACTGTGCTAG: 1.05 z-score
GACGGTTTCGACTCTCGGGACGTGCTA: 4.39 z-score
GACGAACTGTGGTATCGAGACGTGCTA: -0.0947 z-score
TATAAATTATCTTTAATCCTGTGCTAG: 0.132 z-score
CTCTGTCTGGGATGTAATTCCGTGCTA: -0.304 z-score
